Measurements collected from several papers.
A part holds a random share of what one study measured.

Set 1 — technique: protein binding microarray; form: double-stranded DNA, one strand shown; matrix: in vitro; tested at: not given; baseline: not given; reading: higher = stronger binding
Target: Histone acetyltransferase KAT6A, both winged helices, GST fusion (KAT6A, Homo sapiens, UniProt Q92794, residues 1-181)
Notes: 8-mer, flanks averaged, mean of 2 arrays, mostly near background
Target sequence (chain): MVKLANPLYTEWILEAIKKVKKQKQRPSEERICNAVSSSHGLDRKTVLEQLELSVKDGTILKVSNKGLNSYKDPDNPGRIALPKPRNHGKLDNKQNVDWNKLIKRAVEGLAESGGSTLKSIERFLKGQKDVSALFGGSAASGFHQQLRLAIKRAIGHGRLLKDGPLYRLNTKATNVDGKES
| Oligonucleotide | E-score |
| --- | --- |
| AATCGAAC | -0.0428 |
| CATCTCTC | -0.027 |
| TCAGCGAA | -0.0191 |
| CGCCGACA | 0.314 |
| AATAGATA | -0.114 |
| ATATGGAG | -0.0844 |
| AGCTCCCG | 0.0951 |
| CTAACTGA | -0.0271 |
| AGTATATC | -0.121 |

Set 2 — technique: RNAcompete; form: RNA; matrix: in vitro; tested at: 20 nM; notes: 7-mer, probes averaged, single round; baseline: mean of 7-mers; reading: higher = stronger binding
Target: PABPC1L2, full length, GST fusion (mouse, UniProt A0ABA7IW68)
Construct (chain): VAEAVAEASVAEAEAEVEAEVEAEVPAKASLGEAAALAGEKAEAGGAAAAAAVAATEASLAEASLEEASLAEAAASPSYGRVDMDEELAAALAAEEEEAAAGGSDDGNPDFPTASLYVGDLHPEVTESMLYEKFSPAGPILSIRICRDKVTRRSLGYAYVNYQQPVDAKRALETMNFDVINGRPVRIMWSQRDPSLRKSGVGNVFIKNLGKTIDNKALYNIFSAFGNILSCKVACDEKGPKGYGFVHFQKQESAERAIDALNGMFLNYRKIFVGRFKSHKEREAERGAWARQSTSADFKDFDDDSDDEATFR
| Oligonucleotide | 7-mer Z-score |
| --- | --- |
| AAUAAGC | 0.379 |
| GUACUAG | -0.161 |
| UCUGACU | -0.291 |
| GCUGGAC | -0.0156 |
| GUACGCA | -0.133 |
| AGUAGGA | -0.0554 |
| AUGUAUU | -0.208 |

Set 3 — technique: protein-binding microarray; form: double-stranded DNA, one strand shown; matrix: in vitro; tested at: 2200 nM top; notes: 60-bp whole probe; together with: salmon DNA 0.4 mg/ml; baseline: random background probes; reading: higher = stronger binding
Target: Interferon regulatory factor 7, full length, phosphomimetic (IRF7, Homo sapiens, UniProt Q92985, residues 1-503, S471D/S472D/S475D/S476D/S477D/S483D/S484D/S487D)
All sequences stand within: GCCTAGCAC … GTGCTAGGTCTTGATTCGCTTGACGCTGCTG
Target sequence (chain): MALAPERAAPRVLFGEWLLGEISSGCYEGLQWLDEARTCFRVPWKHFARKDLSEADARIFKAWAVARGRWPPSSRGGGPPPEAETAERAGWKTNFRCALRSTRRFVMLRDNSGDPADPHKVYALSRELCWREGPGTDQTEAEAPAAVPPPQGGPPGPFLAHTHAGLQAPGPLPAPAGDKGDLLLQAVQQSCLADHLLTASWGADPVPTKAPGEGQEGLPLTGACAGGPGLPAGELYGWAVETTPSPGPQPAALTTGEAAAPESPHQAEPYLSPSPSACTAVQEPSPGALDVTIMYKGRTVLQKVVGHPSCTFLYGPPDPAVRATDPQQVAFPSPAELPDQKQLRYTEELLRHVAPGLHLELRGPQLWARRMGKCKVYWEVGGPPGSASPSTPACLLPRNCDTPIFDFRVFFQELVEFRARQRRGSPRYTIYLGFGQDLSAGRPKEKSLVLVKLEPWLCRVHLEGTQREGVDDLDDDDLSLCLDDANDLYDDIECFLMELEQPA
| Oligonucleotide | fitted relative affinity [z-score] |
| --- | --- |
| TTAGGTTTCAGTCTCGATTA | 1.83 |
| GACGGTATCCTTCTCCTGGC | 0.846 |
| GGCGAACTGAGTATCGAGAC | -0.588 |
| TAGTTTTTACTTTCTGAATG | 4.8 |
| ACGAGTTTCTATTTTCTGAA | 4.31 |
| TTAGGTTTCGGTTCCGGTTC | 12.7 |
| GACGAACTAAGTCTCGAGAC | -0.0368 |

Other studies, line by line
| Molecule | target | assay | system | setting | scale | endpoint | value |
| --- | --- | --- | --- | --- | --- | --- | --- |
| PhoQ, residues 284 288 289 292 302 303 MLMVEA | PhoP, residues 12 14 15 18 19 VHSCL (Escherichia coli, UniProt P23836) | Sort-seq, refers to: YFP reporter | E. coli | PhoQ-PhoP variant library, together with: 10 µM Mg2+ | baseline: high Mg2+ state, higher = stronger signaling | fold induction | 20.4 |
